# Measured values pooled from the literature.
# Numbered parts are unrelated; each lists some results of a single study.

# Sample 1 — effect on: enzyme activity; action: inhibitor; tested at: 20 µM; notes: hit confirmation, no DTT
# Target: Replicase polyprotein 1ab, main protease (rep, Severe acute respiratory syndrome coronavirus 2, UniProt P0DTD1)
Compound,inhibition
CCc1ccc(/C=C/C(=O)Nc2ccc(C(C)=O)cc2)o1,64.7%
CN(C)CCNc1nc2cc(O)ccc2c2c1C(=O)c1ccccc1-2,97.5%
O=C1c2c(O)cccc2Cc2cccc(O)c21,75.8%

# Sample 2 — effect on: enzyme activity; action: inhibitor; tested at: 20 µM
# Target: Replicase polyprotein 1ab, polymerase (rep, Severe acute respiratory syndrome coronavirus 2, UniProt P0DTD1)
SMILES,inhibition
Cc1ccc(C(=O)c2ccc(CC(=O)O)n2C)cc1,17.4%
Cc1ccc(-c2cc(C(F)(F)F)nn2-c2ccc(S(N)(=O)=O)cc2)cc1,-3.54%
N[C@@H](Cn1ccc(=O)n(Cc2ccccc2C(=O)O)c1=O)C(=O)O,2.36%
COc1cc(C(=O)c2c(C)oc3c(O)c(OC)ccc23)cc(OC)c1OC,-3.98%
CCc1ccc(Cc2ccc3c(c2)[C@]2(OC3)O[C@H](CO)[C@@H](O)[C@H](O)[C@H]2O)cc1,4.96%
CCCCN(CCCC)CCCOC(=O)c1ccc(N)cc1,5.12%
CCC[S+]([O-])c1ccc2[nH]c(NC(=O)OC)nc2c1 (centres unmarked),-0.49%
O=C(c1cc(S(=O)(=O)Nc2ccccc2F)c(F)cc1Cl)N1CCN2CCC[C@@H]2C1,-2.5%
CN1CCN(Cc2ccc(-c3cnc4[nH]cc(-c5ccc6[nH]ccc6c5)c4c3)cc2)CC1,2.27%
CCCCCCCCCCCCCCCc1cccc(OCC(=O)NCCO)c1,-3.69%
COc1ccc2cc1Oc1cc3c(cc1OC)CC[N+](C)(C)[C@H]3Cc1ccc(cc1)Oc1c(OC)c(OC)cc3c1[C@@H](C2)[N+](C)(C)CC3,-3.39%
CN(C)CCC=C1c2ccccc2C=Cc2ccccc21,-5.48%
CC(=O)OCC1=C(C(=O)O)N2C(=O)[C@@H](N)[C@H]2SC1,-4.07%
CCCCCCCCCCCCCCCCn1cc[n+](Cc2ccccc2)c1C,-2.41%
O=C1NC(=O)[C@@H](c2cn3c4c(cccc24)CCC3)[C@@H]1c1c[nH]c2ccccc12,-1.86%
CC(C)(C)c1ccc(S(=O)(=O)NCc2ccc(C(=O)Nc3cccnc3)cc2)cc1,0.25%
CCn1c(=O)n(C2=C(CO)CN(CC3CCCCCCC3)CC2)c2ccccc21,0.14%
O=C(O)C(Cc1c[nH]c2ccccc12)N1C(=O)c2ccccc2C1=O (centres unmarked),2.25%
COC1CCN(c2cccc(-c3cc(NC(C)=O)nc(-n4nc(C)cc4C)n3)n2)CC1,11.1%
COc1ccc(O)cc1,-2.76%
CCC(=O)O[C@@](Cc1ccccc1)(c1ccccc1)[C@@H](C)CN(C)C,-2.92%

# Sample 3 — cell line: HEK-293T; organism: VSV pseudotyped with SARS-CoV-2 spike; tested at: 10 µM; time: 16 h
Compound,pseudovirus infection [%]
NCCc1c[nH]cn1,91.3
CN[C@H](CC(C)C)C(=O)N[C@H]1C(=O)N[C@@H](CC(N)=O)C(=O)N[C@H]2C(=O)N[C@H]3C(=O)N[C@H](C(=O)N[C@H](C(=O)O)c4cc(O)cc(O)c4-c4cc3ccc4O)[C@H](O)c3ccc(c(Cl)c3)Oc3cc2cc(c3O[C@@H]2O[C@H](CO)[C@@H](O)[C@H](O)[C@H]2O[C@H]2C[C@](C)(N)[C@H](O)[C@H](C)O2)Oc2ccc(cc2Cl)[C@H]1O,94.5
NC(CO)(CO)CO,93.8
CCCCc1oc2ccccc2c1C(=O)c1cc(I)c(OCCN(CC)CC)c(I)c1,52

# Sample 4 — method: protein binding microarray; form: double-stranded DNA, one strand shown; matrix: in vitro; tested at: not given; baseline: not given; reading: higher = stronger binding
# Target: Histone acetyltransferase KAT6A, both winged helices, GST fusion (KAT6A, Homo sapiens, UniProt Q92794, residues 1-181)
# Notes: 8-mer, flanks averaged, mean of 2 arrays, mostly near background
# Construct (chain): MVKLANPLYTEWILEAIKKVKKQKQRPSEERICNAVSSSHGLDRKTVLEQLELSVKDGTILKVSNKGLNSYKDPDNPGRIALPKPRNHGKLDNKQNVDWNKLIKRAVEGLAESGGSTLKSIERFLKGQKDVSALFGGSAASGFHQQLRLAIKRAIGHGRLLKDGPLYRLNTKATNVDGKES
Sequence,E-score
CTACAAGC,-0.0773
CGATGGAA,0.0225
CGATTCGC,0.131
AACGGTCA,0.17
CGCGCTCA,0.326
CCCGTAAA,0.168
CCGCGATC,0.26
CCAAACGA,-0.022

# Sample 5 — method: protein-binding microarray; form: double-stranded DNA, one strand shown; matrix: in vitro; tested at: 250 nM; notes: 60-bp whole probe; together with: salmon DNA 0.4 mg/ml; baseline: random background probes; reading: higher = stronger binding; all sequences stand within: GCCTAGCAC … GTCTTGATTCGCTTGACGCTGCTG
# Target: Interferon regulatory factor 5, full length, phosphomimetic (IRF5, Homo sapiens, UniProt Q13568-2, residues 1-514, K96S/S451D/S453D/S456D/S462D)
Sequence,log fluorescence [z-score]
AATTACATTTCATAGAGTGTGTGCTAG,1.02
GACGAACTGTGGACTGGAGACGTGCTA,-0.501
GACGGTATCGACTATCAGGACGTGCTA,3
AGAGTGCTCATGCTTCTTAGGGTGCTA,-0.39
GCCGAACTGAGTTTCGAGACGTGCTAG,4.8
GACGATTTCAGTATCGAGAGGTGCTAG,3.52
TCAGAGTTCTGTTGCAAACTGTGCTAG,0.0778
TTAGGTCGCGGTCTCGGTTAGTGCTAG,0.334

# Repeated from above (sample 4):
Sequence,E-score
AACGGTCA,0.17
CCAAACGA,-0.022
CCCGTAAA,0.168
